Results from different studies.
Compare with care: the assays were run in different laboratories.

The scaled CLint of `Fc1ccc(OCC2CN(Cc3ncc4ccccn34)CCC2(F)F)cc1F` (centres unmarked) is reported as 2550 mL/min/kg (metabolic stability; mouse, liver microsomes).
The relative translation of `O=C(CNc1cccc2ccccc12)N/N=C/c1ccc([N+](=O)[O-])o1` is reported as 88.5% (Trypanosoma cruzi; reporter mRNA translation, inhibitor, refers to: capped polyadenylated Renilla luciferase mRNA; cell-free extract; concentration not given; baseline: control RNA).
For `Cn1ncc2cc(CN3CCC(F)(F)C(COc4ccc(C#N)c(F)c4)C3)ccc21` (centres unmarked), the scaled CLint was 2700 mL/min/kg (metabolic stability; mouse, liver microsomes).
`O=C(CCCn1cnc([N+](=O)[O-])n1)Nc1ccc(F)c(Cl)c1` gave a relative translation of 101% (Trypanosoma cruzi; reporter mRNA translation, inhibitor, refers to: capped polyadenylated Renilla luciferase mRNA; cell-free extract; concentration not given; baseline: control RNA).
With `CC(C)n1ncc2c(C(=O)NCC(C)(C)N)cc(C3CC3)nc21` the scaled CLint was less than 38 mL/min/kg (metabolic stability; mouse, liver microsomes).
The microsomal CLint of `CC(C)(O)Cn1nc(-c2ccccc2)c2c(Cl)c(-c3ccccc3)nnc21` is reported as 523 µL/min/mg (metabolic stability; mouse, liver microsomes; 1 µM).
`CNCCNC(=O)c1cc(C2CC2)nc2c1cnn2C(C)C` gave a scaled CLint of 450 mL/min/kg (metabolic stability; mouse, liver microsomes).
The microsomal CLint of `O=C(Nc1cc(-c2ccnc3[nH]ccc23)c(Cl)cn1)[C@H]1CCC[C@@H](NC(=O)C(F)(F)F)C1` is reported as 64.2 µL/min/mg (metabolic stability; mouse, liver microsomes).
For `CC(C)n1ncc2c(C(=O)NCCN)cc(C3CC3)nc21`, the microsomal CLint was less than 9.6 µL/min/mg (metabolic stability; mouse, liver microsomes).
`Cc1nc2ccc(S(=O)(=O)n3nc(SCc4ccc(Cl)cc4)nc3N)cc2s1` gave a microsomal CLint of 303 µL/min/mg (metabolic stability; mouse, liver microsomes; 1 µM, pH 7.4).
`CC(=O)Nc1cc(Nc2cc(NC3CC3)n3ncc(C#N)c3n2)ccc1N1CCOCC1` gave a scaled CLint of 330 mL/min/kg (metabolic stability; male CD-1 mouse, hepatocytes; 1 µM, serum-free).
The scaled CLint of `Fc1ccc(OCC2CN(Cc3ncn4ccccc34)CCC2(F)F)cc1` (centres unmarked) is reported as 2880 mL/min/kg (metabolic stability; mouse, liver microsomes).
The hepatocyte CLint of `C=CC(=O)N1CCCC(n2c(=O)c3ncccc3n(Cc3ccc(Oc4ccccc4)cc3)c2=O)C1` (centres unmarked) is reported as 83.5 µL/min/10⁶ cells (metabolic stability; male CD-1 mouse, hepatocytes; 1 µM).
`CC(C)n1ncc2c(C(=O)NCCN(C)C)cc(C3CC3)nc21` gave a microsomal CLint of 65.2 µL/min/mg (metabolic stability; mouse, liver microsomes).
The scaled CLint of `C/C(=N\OCCN1CCCC1)c1ccc(C(F)(F)F)cc1` is reported as 544 mL/min/kg (metabolic stability; mouse, liver microsomes).
`CC(C)n1ncc2c(C(=O)NC3(C)CNC3)cc(C3CC3)nc21` has a scaled CLint of less than 38 mL/min/kg (metabolic stability; mouse, liver microsomes).
The microsomal CLint of `Cc1sc2c(c1C)C(c1ccc(Cl)cc1)=N[C@@H](CC(=O)NCCCCCCCCC(=O)N1CCN(C(=O)c3cc(Cc4n[nH]c(=O)c5ccccc45)ccc3F)CC1)c1nnc(C)n1-2` is reported as 307 µL/min/mg (metabolic stability; mouse, liver microsomes).
For `O=C(c1ccc(-c2cccc(C(F)(F)F)c2)cc1)N1CCN(c2ncccn2)CC1`, the microsomal CLint was 66 µL/min/mg (metabolic stability; mouse, liver microsomes).
With `COc1ccc(CN2CCC(F)(F)C(COc3ccc(F)c(F)c3)C2)cc1F` (centres unmarked) the scaled CLint was 742 mL/min/kg (metabolic stability; mouse, liver microsomes).
For `CCC(CC)CNC(=N)NC(=N)NCCCCCCNC(=N)NC(=N)NCC(CC)CC`, the hepatocyte CLint was 10.7 µL/min/10⁶ cells (metabolic stability; mouse, hepatocytes; 1 µM).

Repeated from above:
`CNCCNC(=O)c1cc(C2CC2)nc2c1cnn2C(C)C` gave a scaled CLint of 450 mL/min/kg (metabolic stability; mouse, liver microsomes).
`CC(=O)Nc1cc(Nc2cc(NC3CC3)n3ncc(C#N)c3n2)ccc1N1CCOCC1` gave a scaled CLint of 330 mL/min/kg (metabolic stability; male CD-1 mouse, hepatocytes; 1 µM, serum-free).
